Measured values from different studies.
Lines come from different studies, so protocols differ. Several values in a cell are separate wells, animals, samples, runs or records. ± marks the error that the study gave.
UniProt P25098, sequence (whole entry, looked up): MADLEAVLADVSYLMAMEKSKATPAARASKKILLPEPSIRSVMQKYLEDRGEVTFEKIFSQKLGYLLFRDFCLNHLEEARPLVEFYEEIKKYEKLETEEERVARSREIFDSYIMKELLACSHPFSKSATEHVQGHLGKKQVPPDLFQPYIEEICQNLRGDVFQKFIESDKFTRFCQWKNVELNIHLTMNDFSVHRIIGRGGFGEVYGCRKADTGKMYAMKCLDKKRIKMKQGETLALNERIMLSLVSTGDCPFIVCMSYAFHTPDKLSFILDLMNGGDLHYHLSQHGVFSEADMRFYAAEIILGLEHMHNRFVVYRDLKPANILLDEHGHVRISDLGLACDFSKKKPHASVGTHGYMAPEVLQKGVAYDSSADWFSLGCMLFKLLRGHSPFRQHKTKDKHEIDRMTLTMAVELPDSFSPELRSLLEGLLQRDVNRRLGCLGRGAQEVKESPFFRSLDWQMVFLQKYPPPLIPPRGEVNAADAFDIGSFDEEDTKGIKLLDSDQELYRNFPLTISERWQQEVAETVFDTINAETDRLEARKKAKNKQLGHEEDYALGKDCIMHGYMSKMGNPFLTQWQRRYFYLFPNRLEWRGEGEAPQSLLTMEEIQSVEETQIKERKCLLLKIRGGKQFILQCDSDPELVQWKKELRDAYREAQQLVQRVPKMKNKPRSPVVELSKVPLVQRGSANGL
UniProt P08684, sequence (whole entry, looked up): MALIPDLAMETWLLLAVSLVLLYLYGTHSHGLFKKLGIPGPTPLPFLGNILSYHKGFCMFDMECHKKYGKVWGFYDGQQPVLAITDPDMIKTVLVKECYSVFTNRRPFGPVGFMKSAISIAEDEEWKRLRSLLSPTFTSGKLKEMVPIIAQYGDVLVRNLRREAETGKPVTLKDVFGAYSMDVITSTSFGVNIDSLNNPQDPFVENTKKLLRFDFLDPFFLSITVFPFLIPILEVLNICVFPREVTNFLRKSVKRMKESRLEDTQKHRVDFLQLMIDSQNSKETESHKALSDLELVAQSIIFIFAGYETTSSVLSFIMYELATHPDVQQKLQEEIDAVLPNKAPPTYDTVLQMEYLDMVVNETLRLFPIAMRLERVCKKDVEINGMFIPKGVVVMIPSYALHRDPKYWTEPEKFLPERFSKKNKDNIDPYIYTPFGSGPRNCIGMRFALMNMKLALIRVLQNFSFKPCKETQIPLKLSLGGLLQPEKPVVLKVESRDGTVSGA

CN1CCC[C@]1(C)/C=C/S(=O)(=O)NC(=O)Nc1c2c(cc3c1C(O)CC3)CCC2 (stereo partly shown)  AUC(0-tau) (human, plasma; oral, 12.5 mg twice daily of parent drug, day 1, metabolite of dosed drug): 15300 ng·h/mL
[2H]C1([2H])C[C@@H](C[C@@H](C#N)NC(=O)[C@@H]2[C@@H]3[C@H](CN2C(=O)[C@@H](NC(=O)C(F)(F)F)C(C)(C)C)C3(C)C)C(=O)N1  intrinsic clearance (human liver microsomes; scaled to liver): 10.6 mL/min/kg
CCC[C@H]1CC[C@H](c2ccc(NC(=S)NC[C@@H]3[C@@H](O)[C@@H](O)[C@H]4[C@H](O)CCCN43)cc2)CC1  CRE (NOD-SCID mouse, serum; ip, 30 mg/kg): 0.33 ± 0.05 mg/dL
CCCC[C@H](OC(C)=O)c1ccccc1C(=O)O  MRT(0-inf) (beagle dogs, both sexes, whole blood; intravenous, 0.5 mg/kg single dose): 1.7 ± 2.4 h
CNC(=O)C1CCCN(C(=O)C2CC3CCC2N3C(=O)[C@@H]2C[C@@H](O)CN2C(=O)NCc2cccc(Cl)c2F)C1 (mixture of isomers)  IC50 (Cytochrome P450 3A4 (CYP3A4, Homo sapiens, UniProt P08684); inhibitor; human liver microsomes; together with: testosterone): > 50 µM
CCCCN1C(=O)c2cccc3c(NCCCCCCCCN4CCOCC4)ccc(c23)C1=O  fluorescence lifetime (ethylene glycol): 8.1 ns
CC(C)C[C@H](NC(=O)[C@H](CCCNC(=N)N)NC(=O)[C@H](Cc1ccccc1)NC(=O)[C@H](Cc1ccccc1)NC(=O)[C@@H](NC(=O)[C@H](CO)NC(=O)[C@H](CO)NC(=O)[C@H](CC(=O)O)NC(=O)[C@H](CO)NC(=O)[C@H](CO)NC(=O)[C@H](CC(=O)O)NC(=O)[C@H](CO)NC(=O)[C@H](CO)NC(=O)[C@H](CC(=O)O)NC(=O)[C@H](CO)NC(=O)[C@H](CO)NC(=O)[C@H](CC(=O)O)NC(=O)[C@H](CO)NC(=O)[C@H](CO)NC(=O)[C@H](CC(=O)O)NC(=O)[C@H](CO)NC(=O)[C@H](CO)NC(=O)[C@H](CC(=O)O)NC(=O)[C@H](CO)NC(=O)[C@H](CO)NC(=O)[C@H](CC(=O)O)NC(=O)[C@H](CO)NC(=O)[C@H](CO)NC(=O)[C@@H](N)CC(=O)O)[C@@H](C)O)C(=O)N[C@@H](Cc1ccccc1)C(=O)N[C@@H](CC(N)=O)C(=O)N[C@@H](CCCNC(=N)N)C(=O)N[C@@H](C)C(=O)N[C@@H](CCCCN)C(=O)N[C@@H](CCCNC(=N)N)C(=O)N[C@@H](Cc1c[nH]cn1)C(=O)N[C@@H](Cc1c[nH]cn1)C(=O)NCC(=O)N[C@@H](Cc1ccc(O)cc1)C(=O)N[C@@H](CCCCN)C(=O)N[C@@H](CCCNC(=N)N)C(=O)N[C@@H](CCCCN)C(=O)N[C@@H](Cc1ccccc1)C(=O)N[C@@H](Cc1c[nH]cn1)C(=O)O  peptide concentration (HPLC-UV; human saliva; 0.5 h, 37 °C, together with: initial 1 mg/mL): 0.994 mg/mL
CC(C)(O)c1ncc([S@](N)(=O)=NC(=O)Nc2c3c(cc4c2CCC4)CCC3)s1  nervous system adverse events (healthy human; oral, 3 mg single dose, capsule formulation): 17%
Cc1nc(N)nc2c1C(=O)N[C@@H](c1ccc(F)cc1-c1cccc(OCC[18F])n1)C2  SUV (ex vivo biodistribution; C57BL/6 mice, plasma; intravenous, 1 MBq, 30 min): 0.95 ± 0.1
CC[C@H](C)[C@H](NC(=O)[C@H](CCCCN)NC(C)=O)C(=O)N[C@@H](C)C(=O)N[C@@H](C)C(=O)N[C@@H](CC(C)C)C(=O)N[C@@H](CCCCN)C(=O)N[C@@H](CCC(=O)O)C(=O)N[C@@H](CCCCN)C(=O)N[C@H](C(=O)N[C@@H](C)C(=O)N[C@@H](C)C(=O)N[C@@H](CC(C)C)C(=O)N[C@@H](CCCCN)C(=O)N[C@@H](CCC(=O)O)C(=O)N[C@@H](CCCCN)C(=O)N[C@H](C(=O)N[C@H]1CSCc2ccc(cc2)CSC[C@@H](C(=O)NCC(=O)N[C@@H](Cc2c[nH]c3ccccc23)C(N)=O)NC(=O)[C@H](CCCCN)NC(=O)[C@H](CC(C)C)NC(=O)[C@H](C)NC1=O)[C@@H](C)CC)[C@@H](C)CC  melting temperature (circular dichroism thermal melting; PBS; pH 7.4, single peptide 50 µM total): 26 °C
COC1CN([C@H]2CC[C@H]([C@@]3(C)Oc4c(Cl)cc(C(=O)NCc5c(SC)cc(C)[nH]c5=O)c(C)c4O3)CC2)C1  log2 fold change (RNA-seq, measured: A3GALT2 mouse homolog; mouse, HT-1376 xenograft, whole blood; dose not given; relative to: vehicle): 0.503
Cc1nn(-c2cccc(N)c2)c(=O)c2cnc(Nc3ccc(N4CCNCC4)cc3)nc12  IC50 (GRK2 (Homo sapiens, UniProt P25098); enzyme activity, inhibitor): > 10 µM
CCCCN1C(=O)c2cccc3c(NCCCCCCCCCCN4CCOCC4)ccc(c23)C1=O  absorption maximum (dichloromethane): 429 nm
C/C(N)=N/C(=N\S(=O)(=O)c1ccc(C(F)(F)F)cc1)N1C[C@H](c2ccccc2)C(c2ccc(Cl)cc2)=N1  half-life (beagle dog, plasma; oral, 12 mg/kg): 18.1 h
CC(C)[C@H](NC(=O)[C@H](Cc1c[nH]c2ccccc12)NC(=O)[C@H](CCCNC(=N)N)NC(=O)[C@H](CCCNC(=N)N)NC(=O)[C@@H](NC(=O)[C@@H](NC(=O)[C@H](CCCNC(=N)N)NC(=O)[C@@H](NC(=O)[C@@H](NC(=O)[C@H](CCCNC(=N)N)NC(=O)[C@H](CCCNC(=N)N)NC(=O)[C@@H](NC(=O)[C@H](Cc1c[nH]c2ccccc12)NC(=O)[C@H](CCCNC(=N)N)NC(=O)[C@H](CCCNC(=N)N)NC(=O)[C@@H](NC(=O)[C@H](CCCNC(=N)N)NC(=O)[C@H](CCCNC(=N)N)NC(=O)[C@@H](NC(=O)[C@H](Cc1c[nH]c2ccccc12)NC(=O)[C@H](CCCNC(=N)N)NC(=O)[C@@H](N)CCCNC(=N)N)C(C)C)C(C)C)C(C)C)C(C)C)C(C)C)C(C)C)C(C)C)C(=O)N[C@@H](CCCNC(=N)N)C(=O)N[C@@H](CCCNC(=N)N)C(=O)O  urinary sodium excretion (CD-1 mice; intravenous, 15 mg/kg, 6-24 h): < 16 µmol/day/g body weight
O=C1C2CC3CC1CC(C(=O)N1CCN(c4ccc([N+](=O)[O-])c5ncccc45)CC1)(C3)C2  mean revertant colonies (Salmonella typhimurium; Ames test; TA1535; 0.31 µg/well, without S9): 4 colonies/well
CCCCN1C(=O)c2cccc3c(NCCCCCCN4CCOCC4)ccc(c23)C1=O  absorption maximum (ethylene glycol): 448 nm
Cc1ncsc1-c1ccc(C(C)NC(=O)C2CC(O)CN2C(=O)C(NC(=O)CCCCCCCCCCN2CCCC(Nc3ncc(Cl)c(Nc4ccccc4S(=O)(=O)C(C)C)n3)C2)C(C)(C)C)cc1 (stereo not shown)  log2 fold change (22Rv1; RNA-seq, measured: RORC mRNA; concentration not given; relative to: DMSO): -1.67
C=CC(=O)Nc1cccc(Cn2ncc3cnc(Nc4cnn(CCOC)c4)nc32)c1  percent of control (MYLK2 human; binding, KINOMEscan; 100 nM; lower = stronger binding): 67%
CC(C)C[C@H](NC(=O)[C@H](Cc1ccc(O)cc1)NC(=O)[C@@H](CCCNC(=N)N)NC(=O)[C@@H](CO)NC(=O)[C@H](Cc1ccccc1)NC(=O)[C@H](CC1CCCCC1)NC(=O)[C@H](CC(=O)O)NC(=O)CN1CCN(CC(=O)O)CCN(CC(=O)O)CCN(CC(=O)O)CC1)C(=O)N[C@@H](Cc1c[nH]c2ccccc12)C(=O)N[C@@H](CO)C(=O)O [copper-64 labelled]  activity concentration (human, upper large intestine; concentration not given, 1 h): 1940 Bq/mL and 1310 Bq/mL and 2160 Bq/mL and 1260 Bq/mL and 2000 Bq/mL and 1620 Bq/mL
CNS(=O)(=O)Nc1nccc(Cc2c(C)c3ccc(Oc4ncccc4F)cc3oc2=O)c1F  IC50 (NCI-H358; cell viability; 7 days): 0.00907 µM
O=C(Nc1cnccc1-c1ccc([18F])nc1)c1ccnc(NC(=O)C2CC2)c1  SUV (mice, transgenic, GSK-3β, early-stage, lung; intravenous, dose not given, 120 min): 0.113
CC(=O)N([O-])CCCCCNC(=O)CCC(=O)N([O-])CCCCCNC(=O)CCC(=O)N([O-])CCCCCN.[89Zr+4]  tracer uptake (mouse, spleen; 1 h): 0.23 %ID/g
CCn1c(C)c(Cc2ccc(Cl)c(O[C@H](C)C(=O)O)c2)c2ccc(C(=O)N[C@@H](C)c3ccc(C(C)(C)C)cc3)cc21  half-life (metabolic stability; mouse, liver microsomes): > 1 h
O=C(Nc1cnccc1-c1ccc([18F])cc1)c1ccnc(NC(=O)C2CC2)c1  SUV (FVB/NJ mice (both sexes), skin; intravenous, dose not given, 120 min): 0.1
CCCC[C@H](NC(=O)CNC(=O)CNC(=O)[C@H](CCCCNC(=O)[C@H](CC(=O)O)NC(=O)C(C)c1ccc(CC(C)C)cc1)NC(=O)CN1CCN(CC(=O)O)CCN(CC(=O)O)CCN(CC(=O)O)CC1)C(=O)N[C@H]1CC(=O)NCCCC[C@@H](C(N)=O)NC(=O)[C@H](Cc2c[nH]c3ccccc23)NC(=O)[C@H](CCCNC(=N)N)NC(=O)[C@@H](Cc2ccccc2)NC(=O)[C@H](Cc2c[nH]cn2)NC1=O (stereo partly shown) [lutetium-177 labelled]  tumour-to-tissue ratio (C57 mice, tumour; 2 h; relative to: lung): 26.8
CN(C(=O)C(C)(C)c1cc(C(F)(F)F)cc(C(F)(F)F)c1)c1cnc(N2C[C@H]3COC(O)CN3C[C@H]2CO)cc1-c1ccc(F)cc1CO (stereo partly shown)  share of total plasma radioactivity (human male, plasma; oral, 120 mg, AUC(0-inf) based): ~5.3%
C=C(NC(=O)c1csc(-c2nc3c(cc2O)-c2nc(cs2)C(=O)NC(C(C)O)C(=O)NC(=C(C)OC)c2nc(cs2)C(=O)NC2c4nc(cs4)C(=O)NC(COC(=O)c4c5c6c(cccc6n4O)COC(=O)C(OC4CC(C)(O)C(N(C)C)C(C)O4)C2OC5)c2nc-3cs2)n1)C(N)=O (stereo not shown)  MRT(0-last) (cynomolgus monkey, both sexes, plasma; intravenous infusion, 3 mg/kg multiple doses, day 7): 1.46 h
Nc1ncc(-c2cc(-c3cnn(CC(F)(F)F)c3)ncc2F)nc1C(=O)NC1CNCC(F)C1 (stereo not shown)  remaining binding (CDKL2; KINOMEscan; 1 µM; relative to: DMSO control): 91%
CC(=O)[O-].O.O.[O-]c1ccc(Br)cc1C=NCCN1CCOCC1.[Zn+2]  ferric reducing power (FRAP; 40 µM): 10.8%
CCCC[C@H](NC(=O)CCCCCCCNC(=O)CN1CCN(CC(=O)O)CCN(CC(=O)O)CC1)C(=O)N[C@H]1CC(=O)NCCCC[C@@H](C(N)=O)NC(=O)[C@H](Cc2c[nH]c3ccccc23)NC(=O)[C@H](CCCNC(=N)N)NC(=O)[C@@H](Cc2ccccc2)NC(=O)[C@H](Cc2c[nH]cn2)NC1=O [fluorine-18 labelled]  urinary excretion (C57 mice, B16/F10 melanoma, urine; intravenous, 0.37 MBq, 0.5 h): 53.5 ± 2.76%

Excerpt of the above:
CNS(=O)(=O)Nc1nccc(Cc2c(C)c3ccc(Oc4ncccc4F)cc3oc2=O)c1F  IC50 (NCI-H358; cell viability; 7 days): 0.00907 µM
O=C1C2CC3CC1CC(C(=O)N1CCN(c4ccc([N+](=O)[O-])c5ncccc45)CC1)(C3)C2  mean revertant colonies (Salmonella typhimurium; Ames test; TA1535; 0.31 µg/well, without S9): 4 colonies/well
[2H]C1([2H])C[C@@H](C[C@@H](C#N)NC(=O)[C@@H]2[C@@H]3[C@H](CN2C(=O)[C@@H](NC(=O)C(F)(F)F)C(C)(C)C)C3(C)C)C(=O)N1  intrinsic clearance (human liver microsomes; scaled to liver): 10.6 mL/min/kg
CC(=O)[O-].O.O.[O-]c1ccc(Br)cc1C=NCCN1CCOCC1.[Zn+2]  ferric reducing power (FRAP; 40 µM): 10.8%
